{"data": "Experimental data collected from several papers", "POLB": "DNA polymerase beta (POLB, Homo sapiens, UniProt P06746)", "note": "Lines come from different studies, so protocols differ. ± marks the error that the study gave."}
{"Structure (SMILES)": "CC(P(=O)(O)O)P(=O)(O)OP(=O)(O)OCC1OC(n2cnc3c(=O)[nH]c(N)nc32)CC1O (mixture of isomers)", "target or system": "POLB", "assay": "nucleotide incorporation rate, substrate, single-turnover kinetics", "test system": "single-nucleotide gapped DNA", "conditions": "37 °C, wild type, misincorporation, added: dGTP opposite template A", "measurement": "kpol", "value": "0.0003 ± 4e-05 s⁻¹"}
{"Structure (SMILES)": "O=C(NCCOc1cnc(-c2ccc(N3CCN(C(=O)CN4CCC(C(=O)Nc5ccc6[nH]nc(-c7ccncc7)c6c5)C4)CC3)cc2)nc1)OC1CCC=CCCC1 (stereo not drawn)", "target or system": "MAPK1 (Homo sapiens, UniProt P28482)", "assay": "binding, SPR", "conditions": "25 °C", "measurement": "dissociation half-life", "value": "3.88 h"}
{"Structure (SMILES)": "[64Cu+2].c1ccc(CNCc2ccc(CN3CCCN4CCNCCCN(CC4)CC3)cc2)nc1", "target or system": "CXCR4", "test system": "NOD/SCID mouse, U87 and U87-stb-CXCR4 xenografts, lungs", "conditions": "iv, 90 min, ex vivo, added: AMD3465 25 mg/kg sc before tracer", "measurement": "tissue uptake", "value": "2.7 ± 0.24 %ID/g"}
{"Structure (SMILES)": "Nc1nc2c(ncn2[C@H]2C[C@H](O)[C@@H](COP(=O)(O)OP(=O)(O)C(Br)(Br)P(=O)(O)O)O2)c(=O)[nH]1", "target or system": "DNA polymerase beta (POLB, Homo sapiens, UniProt P06746, I260M)", "assay": "nucleotide incorporation rate, substrate, single-turnover kinetics", "test system": "single-nucleotide gapped DNA", "conditions": "37 °C, I260M, misincorporation, added: dGTP opposite template A", "measurement": "kpol", "value": "0.0009 ± 0.0001 s⁻¹"}
{"Structure (SMILES)": "CNc1ccccc1C(=O)O[C@H]1C[C@H](n2cnc3c(N)ncnc32)O[C@@H]1COP(=O)(O)OP(=O)(O)O", "target or system": "Unconventional myosin-Va (Gallus gallus, UniProt Q02440, D297C/G292C/I296C/S293C/V295G)", "assay": "stopped-flow FRET, linear fit intercept", "conditions": "15 °C, added: MgCl2 2 mM", "measurement": "dissociation rate constant", "value": "2.17 ± 0.25 s⁻¹"}
{"Structure (SMILES)": "Cc1cc(Nc2ccc(NC(=O)c3ccc(NC(=O)c4ccncc4)cc3)cc2)nc(N)n1", "target or system": "DNA (cytosine-5)-methyltransferase 3A, catalytic domain (DNMT3A, Homo sapiens, UniProt Q9Y6K1)", "assay": "enzyme activity, inhibitor, restriction-based fluorescence", "conditions": "concentration not given", "measurement": "activity class", "value": "inactive"}
{"Structure (SMILES)": "C[n+]1cn(C2OC(COP(=O)([O-])OP(=O)(O)OP(=O)(O)OCC3OC(n4cnc5c(=O)[nH]c(N)nc54)C(O)C3O)C(O)C2O)c2nc(NCc3cc(-c4ccccc4)no3)[nH]c(=O)c21 (stereo not drawn)", "target or system": "Eif4e (Mus musculus, UniProt P63073)", "assay": "differential scanning fluorimetry", "scale": "reference: m7GpppG", "measurement": "relative affinity", "value": "~5"}
{"Structure (SMILES)": "CC(C)C1CC(=O)N1S(=O)(=O)c1cccc(Cl)c1 (stereo not drawn)", "target or system": "Rhomboid protease AarA (Providencia stuartii, UniProt P46116)", "assay": "enzyme activity, inhibitor", "conditions": "100 µM", "measurement": "remaining activity", "value": "71 to 86%"}
{"Structure (SMILES)": "NS(=O)(=O)Nc1ncnc(OCCOc2ncc(Br)cn2)c1-c1ccc(Br)cc1", "assay": "metabolite formation", "test system": "female Sprague-Dawley rat, liver microsomes", "conditions": "450 mg/kg daily for 4 weeks", "measurement": "Vmax", "value": "345 ± 18 pmol/min/mg"}
{"Structure (SMILES)": "O=Cc1c(O)ccc2ccccc12", "target or system": "HUVEC", "assay": "RNA sequencing, measured: SOX18", "conditions": "75 µM, 24 h", "scale": "reference: DMSO", "measurement": "log2 fold change", "value": -3.34}
{"Structure (SMILES)": "CCC1(CC)C(=O)N(c2cccc(CN3CCN(Cc4ccc5ccc6cccc7ccc4c5c67)CC3)c2)C1=O", "target or system": "Dipeptidyl peptidase 8 (Homo sapiens, UniProt Q6V1X1)", "assay": "inhibitor, Morrison equation", "measurement": "Ki", "value": "inactive"}
{"Structure (SMILES)": "CCCC[C@H](NC(=O)CCCCCCCNC(=O)CN1CCN(CC(=O)O)CCN(CC(=O)O)CC1)C(=O)N[C@H]1CC(=O)NCCCC[C@@H](C(N)=O)NC(=O)[C@H](Cc2c[nH]c3ccccc23)NC(=O)[C@H](CCCNC(=N)N)NC(=O)[C@@H](Cc2ccccc2)NC(=O)[C@H](Cc2c[nH]cn2)NC1=O [copper-64 labelled]", "test system": "C57 mice, heart", "conditions": "intravenous, 0.37 MBq, 4 h", "measurement": "tissue uptake", "value": "0.12 ± 0.06 %ID/g"}
{"Structure (SMILES)": "CCCCC/C=C/C(=O)CCc1ccc(O)c(OC)c1", "target or system": "mAb 5-D8", "assay": "antibody binding, indirect competitive ELISA", "conditions": "added: coating antigen hapten 4-OVA", "measurement": "IC50", "value": "0.359 µg/mL"}
{"Structure (SMILES)": "Oc1ccc(C2CNCc3sccc32)cc1O (stereo not drawn)", "target or system": "Carbamate kinase (Giardia intestinalis, UniProt A8BB85)", "assay": "enzyme activity, inhibitor, luminescence, ATP detection", "test system": "Giardia lamblia", "measurement": "maximal inhibition", "value": "87.4%"}
{"Structure (SMILES)": "COc1cc(CCC(C)=O)ccc1O", "target or system": "mAb 5-D8", "assay": "antibody binding, indirect competitive ELISA", "conditions": "added: coating antigen hapten 2-OVA", "measurement": "IC50", "value": "> 4 µg/mL"}
{"Structure (SMILES)": "CCc1nc2ccc(N(Cc3ccccc3)C(=O)c3cccs3)cc2c(=O)n1Cc1ccc(-c2ccccc2-c2nn[nH]n2)cc1", "target or system": "AGTR2 (Homo sapiens, UniProt P50052, M214A)", "assay": "ligand displacement, radioligand", "conditions": "cell membranes", "measurement": "Ki", "value": "8.32 nM"}
{"Structure (SMILES)": "Cc1ccc(NC(=O)CNS(=O)(=O)c2nc(-c3ccc(OC(F)(F)F)cc3)cc(C(F)(F)F)n2)cc1", "target or system": "WRN (Homo sapiens, UniProt Q14191)", "assay": "isothermal titration calorimetry", "conditions": "concentration not given, 25 °C", "measurement": "binding enthalpy", "value": "~11 kcal/mol"}
{"Structure (SMILES)": "c1ccc(-c2nn[nH]c2-c2ccccc2)cc1", "target or system": "Troponin C, slow skeletal and cardiac muscles, with cTnI (TNNC1, Human, UniProt P63316, C35S/C84S/T53C)", "assay": "stopped-flow fluorescence", "conditions": "50 µM, IAANS-labelled chimera", "measurement": "Ca2+ dissociation rate", "value": "51.8 ± 0.4 s⁻¹"}
{"Structure (SMILES)": "Nc1nc2c(ncn2[C@H]2C[C@H](O)[C@@H](COP(=O)(O)OP(=O)(O)[C@H](Cl)P(=O)(O)O)O2)c(=O)[nH]1", "target or system": "POLB", "assay": "substrate, quench-flow kinetics", "conditions": "pH 8.0, 37 °C, incorporation opposite C in gapped DNA", "measurement": "kpol", "value": "7.6 s⁻¹"}
{"Structure (SMILES)": "CN(C)c1ccc(/C=C/CNc2ccnc3cc(Cl)ccc23)cc1", "target or system": "Nuclear receptor subfamily 4 group A member 2, ligand binding domain (Homo sapiens, UniProt P43354)", "assay": "reporter gene, agonist, Gal4-Nurr1 hybrid reporter", "test system": "HEK-293T", "conditions": "30 µM, crude library product", "scale": "reference: vehicle (0.1% DMSO)", "measurement": "activation", "value": "≤ 1.5 fold"}
{"Structure (SMILES)": "COc1ccc(CNc2nc(-c3ccccc3OC)cc(C(F)(F)F)n2)cc1", "target or system": "Secretin receptor (SCTR, Homo sapiens, UniProt P47872)", "assay": "increase of tracer binding, TR-FRET", "test system": "HEK293 membranes", "conditions": "added: Fluo-Sec 6 nM", "measurement": "Emax", "value": "135 ± 12%"}
